Assay results pooled from the literature.
Compare with care: the assays were run in different laboratories. “And” joins repeats or separate records; there may be more than shown. ± gives the spread as reported.

SMILES | tested on | test | test system | setting | how to read | endpoint | value
Clc1ccc(-c2cc(Cl)ccc2Cl)cc1 | Androgen receptor (AR, Homo sapiens, UniProt P10275) | reporter gene, antagonist | – | 24 h, with: DHT 2 nM | – | IC25 | 3.1 µM
COc1cc(/C=C/C(=O)NC2CCN(Cc3ccccc3)CC2)ccc1OC(=O)N(C)C | Cholinesterase (BCHE, Equus caballus, UniProt P81908) | Ellman | equine serum BuChE | – | baseline: AChE IC50 over BuChE IC50 | selectivity ratio | 0.5
Nc1ncnc2c1ncn2[C@@H]1O[C@H](COP(=O)(O)OP(=O)(O)NP(=O)(O)O)[C@@H](O)[C@H]1O | N-acetylmannosamine kinase (nanK, Haemophilus influenzae, UniProt Q4QP43, T131V) | binding | – | – | – | ΔH | -1.87 ± 0.23 kcal/mol
Nc1nc2c(ncn2[C@H]2C[C@H](O)[C@@H](COP(=O)(O)OP(=O)(O)OP(=O)(O)O)O2)c(=O)[nH]1 | Gag-Pol polyprotein, reverse transcriptase (gag-pol, Human immunodeficiency virus type 1 group M subtype B, UniProt P04585, K653R) | nucleotide misincorporation, steady-state kinetics | – | K66R RT, with: matched template/primer, template T | – | kcat | 0.138 ± 0.0128 s⁻¹
COc1ccc(N2C(=O)N(c3c(C)cccc3Cl)Cc3cnc(Nc4ccc(C5CCN(C)CC5)cc4OC)nc32)nc1 | FER (Homo sapiens, UniProt P16591) | kinase activity | – | 0.5 µM | – | inhibition | 76%
Oc1cc(Br)cc(Br)c1Oc1ccc(Br)cc1Br | SULT1B1 (Homo sapiens, UniProt O43704) | sulfonation, substrate | – | – | – | Vmax/Km | 1850 µL/min/mg
CC(=O)N[C@@H](C)C(=O)N1CCC[C@H]1C(=O)N[C@@H](CC(C)C)C(=O)N[C@H](C(=O)N[C@@H](CCCNC(=N)N)C(=O)NCC(=O)N[C@@H](CO)C(=O)N[C@@H](CS)C(=O)N[C@@H](CCCNC(=N)N)C(=O)N[C@@H](CCCCN)C(=O)N[C@@H](CCCNC(=N)N)C(=O)N[C@@H](CC(N)=O)C(=O)N[C@@H](CCCNC(=N)N)C(=O)N[C@@H](CO)C(=O)N1CCC[C@H]1C(=O)N[C@@H](CCC(=O)O)C(=O)N[C@@H](CCCNC(=N)N)C(N)=O)[C@@H](C)O | WDR5 (Homo sapiens, UniProt P61964) | binding, isothermal titration calorimetry | – | pH 7.0, 20 °C | – | ΔH | -7.89 kcal/mol
CCN(CC)CCCC[C@H](NC(=O)[C@H](CC(C)C)NC(=O)[C@H](C)NC(=O)[C@H](Cc1ccccc1)NC(=O)c1ccc(C(C)(C)C)cc1)C(=O)N[C@@H](CO)C(=O)OC | AGTR1 (Homo sapiens, UniProt P30556) | antagonist, radioligand binding | – | 10 µM | baseline: control binding | specific binding | 104%
COc1cc(/C=C/c2ccc(O)cc2)cc(OC)c1 | O-methyltransferase (Sorghum bicolor, UniProt A0A1B6PFV1, W279A) | isothermal titration calorimetry | – | concentration not given, APO | – | binding stoichiometry N | 1.11 ± 0.006 sites
CN(C)c1ccc(O)c2c1C[C@H]1C[C@H]3[C@H](N(C)C)C(O)=C(C(N)=O)C(=O)[C@@]3(O)C(O)=C1C2=O | Plasmodium falciparum | – | GB4 | – | – | IC50 | 5.01 µM
CN1CCN(c2cc(-c3ccncc3)c(-c3ccc4ccccc4c3)nn2)CC1 | GRM1 (Homo sapiens, UniProt Q13255) | antagonist, FLIPR | – | 10 µM | – | inhibition | 5.2%
O=C(O)C(F)(F)C(F)(F)C(F)(F)C(F)(F)C(F)(F)C(F)(F)C(F)(F)F | SLC22A8 (Homo sapiens, UniProt Q8TCC7) | uptake, substrate, two-transporter equation fit | HEK293 cells stably expressing SLC22A8 | 2.5 min, 37 °C | – | Jmax | 629 ± 71 pmol/min/mg protein
O=C(Nc1cnccc1Cl)N1CCN(Cc2ccc3c(c2)OC(F)(F)O3)CC1 | HRH1 (Homo sapiens, UniProt P35367) | radioligand binding | – | 10 µM, with: [3H]pyrilamine | – | inhibition of binding | 4%
O=C(O[C@H]1C[C@H]2CC[C@@H](C1)[N+]21CCCC1)C(O)(c1ccccc1)c1ccccc1 | Cholinesterase (BCHE, Homo sapiens, UniProt P06276) | – | – | concentration not given, Triton | – | efficacy | -80.4 ± 12.1%
COc1cc(N)c(Cl)cc1C(=O)NC1CN2CCC1CC2 (centres unmarked) | Adhesion G protein-coupled receptor D2 (ADGRD2, Homo sapiens, UniProt Q7Z7M1) | β-arrestin recruitment, TANGO luminescence, measured: GPR144 | – | concentration not given | baseline: basal luminescence | log2 fold change | 0.296
CCNC(=O)N1CCN(CCCC(c2ccc(F)cc2)c2ccc(F)cc2)CC1 | Plasmodium falciparum | – | Dd2 | – | – | IC50 | 2.51 µM
COc1cc2nccc(Oc3ccc(NC(=O)c4cc5c(n(-c6ccccc6)c4=O)CCCC5=O)nc3)c2cc1OC | HCK (Homo sapiens, UniProt P08631) | cell viability, CellTiter-Glo | Ba/F3 expressing recombinant kinase | – | baseline: HCK IC50 over AXL IC50 | selectivity ratio | > 100
O=C(c1ccc(Cl)cc1)N1CCN2C(=O)N(OC(=O)N3CCOc4ccccc43)C(=O)C2C1 (centres unmarked) | Biotinidase (Homo sapiens, UniProt P43251) | MS-based ABPP | SW-620 conditioned medium | 10 µM, 1 h, 37 °C | baseline: compound over DMSO, lower = more inhibition | peptide ratio | 2.1 and 1.41 and 1.42 and 2.18
CC(=O)SCCNC(=O)CCNC(=O)[C@H](O)C(C)(C)COP(=O)(O)OP(=O)(O)OC[C@H]1O[C@@H](n2cnc3c(N)ncnc32)[C@H](O)[C@@H]1OP(=O)(O)O | N-acetylaspartate synthetase (NAT8L, Homo sapiens, UniProt Q8N9F0) | substrate, CPM fluorescence | – | 30 min | – | Km | 11 µM
Cc1nn(C)cc1-c1nc2c(N3CCN(Cc4ccc(Cl)cc4)CC3)c(Cl)cnc2[nH]1 | MAP3K13 (Homo sapiens, UniProt O43283) | KINOMEscan | – | 1 µM | baseline: DMSO control | remaining binding | 88%
CNc1cc(OC)c(C(=O)NC2CCN(Cc3ccccc3)C2C)cc1Cl (centres unmarked) | Cholinesterase (BCHE, Homo sapiens, UniProt P06276) | – | – | concentration not given, Triton | – | efficacy | -82.9 ± 22.2%
O=C(Nc1cccnn1)N1CCC(=Cc2cccc(Oc3ccc(C(F)(F)F)cn3)c2)CC1 | Protein S100-A16 (Rattus norvegicus, UniProt A0ACM8QDC9) | competitive ABPP with azido-FP probe | rat brain membrane fraction | 0.1 µM, unit not given | baseline: DMSO | probe labelling | -5
Oc1noc2c1CCNC2 | GABA-A receptor; alpha-1/beta-2/gamma-2 (Rattus norvegicus, UniProt P18508+P62813+P63138) | membrane potential, agonist, QP-DHM fluorescence | HEK293 expressing GABAA | 10 µM | baseline: 10 µM GABA, direction not given | agonist score | 0.35
O=C1[O][Pt]2([NH][C@@H]3CCCC[C@H]3[NH]2)[O]C1=O | Chrna7 (Rattus norvegicus, UniProt Q05941) | ion current, positive allosteric modulator | – | with: nicotine 25 µM | – | EC50 | inactive
C[C@@H](O)[C@H](N)C(=O)O | ilvA (Escherichia coli, UniProt P04968, F352A) | 2-ketobutyrate formation, substrate, steady-state kinetics | – | – | – | Km | 5800 µM
CN(C(=O)n1cnc(-c2ccc[n+]([O-])c2)c1)C1CCCCC1 | BDKRB1 (Homo sapiens, UniProt P46663) | radioligand binding | – | 50 µM, with: [3H]des-Arg10-kallidin | – | inhibition | 16%
C[C@H]1CN(c2n[nH]c3nc(N[C@H]4CC[C@H](NS(=O)(=O)CCC(F)(F)F)CC4)ncc23)CCO1 | MICOS complex subunit MIC60 (Homo sapiens, UniProt Q16891) | Kinobeads competition, measured: IMMT | – | 0.032 µM, unit not given | baseline: vehicle | remaining binding | 1.04
Cc1[nH]c(C)c(S(=O)(=O)Nc2ccc(S(=O)(=O)F)c(Cl)c2)c1C(=O)N1CCC(F)(F)C1 | DRD3 (Homo sapiens, UniProt P35462) | β-arrestin recruitment, agonist, PathHunter | – | – | baseline: dopamine | Imax | 100 ± 1%
O=c1cc(CSc2ccc(N=Cc3ccc(F)cc3)cc2)occ1O | MAL12 (Saccharomyces cerevisiae S288c, UniProt P53341) | fluorescence quenching | – | 289.15 K | – | bimolecular quenching constant | 5.44e+12 M⁻¹ s⁻¹
